Published values gathered from unrelated publications.
A part holds a random share of what one study measured. Positions count from the first letter of the parent shown.

Series 1
Target: Ras GTPase-activating protein-binding protein 1, full length (G3BP1, Homo sapiens, UniProt Q13283)
Sequence of UniProt Q13283 (whole entry, looked up): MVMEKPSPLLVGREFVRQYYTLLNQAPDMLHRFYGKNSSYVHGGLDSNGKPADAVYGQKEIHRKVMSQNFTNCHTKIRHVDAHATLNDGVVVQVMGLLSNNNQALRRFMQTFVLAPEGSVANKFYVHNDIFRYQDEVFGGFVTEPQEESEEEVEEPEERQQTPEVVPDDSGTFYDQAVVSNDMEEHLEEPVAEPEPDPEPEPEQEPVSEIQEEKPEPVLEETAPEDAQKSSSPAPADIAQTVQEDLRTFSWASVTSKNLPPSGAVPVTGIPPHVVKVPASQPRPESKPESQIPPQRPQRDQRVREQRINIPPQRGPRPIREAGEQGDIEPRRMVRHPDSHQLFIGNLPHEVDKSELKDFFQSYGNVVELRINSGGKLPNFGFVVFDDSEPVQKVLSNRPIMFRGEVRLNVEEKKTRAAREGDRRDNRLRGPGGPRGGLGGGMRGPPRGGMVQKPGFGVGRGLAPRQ
Technique: RNA Bind-n-Seq
Molecule type: RNA
Medium: in vitro
Tested at: 200 nM
Notes: whole 134-nt RNA, ends assumed
Added: 150 mM LiCl
Baseline: input library
Reading: higher = stronger binding
All molecules: 7-deaza-guanosine replaces G
Shared flanks, not repeated: GGGAGUUCUACAGUCCGACGAUC … UGGAAUUCUCGGGUGUCAAGG
Oligonucleotide	log2 enrichment
UGUCCAGCUCUGAAGGGCAAAGUGCAGAAGAUCCUAAUCUGGAAGUGGGGUCAGCCACCAUCUCCCACACCAGUGCCUCGGCCUCCAGAU	0.998
UCAAGUCCUGUGCUACACAUCGUAUGUACCGAAUCGGGAGGGUUUGGGUUUGGGAAAGUAUUAUGUUACGCCGUUCGGAUCUGCACUUCC	-0.151
GGGGAGGUGGAUUUUGUUUAUUUUUUUAGCUCAUUUCCAGGGGUGGGAAUUUUUUUUUAAUAUGUGUCAUGAAUAAAGUUGUUUUUGAAA	0.49
ACCAUGCAGGUGGGCAUCUUUGUGAAGUGGGGCAAGGGGGGGAUAGGGAGGGGGGUAACACUUUGGGAACAGGUGGUCCCAGGUCGUUUC	0.247
UCCAUGCAGGUGGGCAUCUUUGGGAAGUGGGGCAAGGGGGGGAUAGGGAGGGGGGUAACACUUUGGGAACAGGUGGUCCCAGGUCGUUUC	0.356
AGUCCUGUGCUACACAUCGUAUGUACCGAAUCGGGGUGGGGUUUGGGGUUUUUGGGGAAAGUAUUAUGUUACGCCGUUCGGAUCUGCACU	-0.417
GCAGGAAGUAAAAACAAAUGGAAAUGCUUCGGAUAGUGGCAGGGGUGGGGGUUGCUAAGGAAAGGGUGGGAUGGGAGUGGGUAAAGAGGU	0.162
UGGGAGGUGGAUUUUGUUUAUUUUUUUAGCUCAUUUCCAGUGGUGGGAAUUUUUUUUUAAUAUGUGUCAUGAAUAAAGUUGUUUUUGAAA	-0.806
CACGGACAACACGCACCCACACAGACACAGAGGGAAGGGGUUGGGAUGGGGACAGGGUGCACAGCAGGGCGGGGUAGGACCCCAGCCCCU	1.22
CUCAAGUCCUGUGCUACACAUCGUAUGUACCGAAUCGGGUGGGGUGGGGUGGGGAAAGUAUUAUGUUACGCCGUUCGGAUCUGCACUUCC	-0.476
AAGUCCUGUGCUACACAUCGUAUGUACCGAAUCGGGUGGGAAAAAGGGUUUUUGGGAAAGUAUUAUGUUACGCCGUUCGGAUCUGCACUU	-1.16

Series 2
Target: RING finger protein unkempt homolog, zinc fingers 1-6, GST-SBP tag (UNK, Homo sapiens, UniProt Q9C0B0, residues 30-357)
Technique: RNA Bind-n-Seq
Molecule type: RNA
Medium: in vitro
Tested at: not given
Notes: RNA with constant flanks, human and mouse sites, ends assumed
Baseline: input RNA pool
Reading: higher = stronger binding
Shared flanks, not repeated: GGGAGUUCUACAGUCCGACGAUC … CAACAGAGGAUUGAGCAUCA
Residues (chain): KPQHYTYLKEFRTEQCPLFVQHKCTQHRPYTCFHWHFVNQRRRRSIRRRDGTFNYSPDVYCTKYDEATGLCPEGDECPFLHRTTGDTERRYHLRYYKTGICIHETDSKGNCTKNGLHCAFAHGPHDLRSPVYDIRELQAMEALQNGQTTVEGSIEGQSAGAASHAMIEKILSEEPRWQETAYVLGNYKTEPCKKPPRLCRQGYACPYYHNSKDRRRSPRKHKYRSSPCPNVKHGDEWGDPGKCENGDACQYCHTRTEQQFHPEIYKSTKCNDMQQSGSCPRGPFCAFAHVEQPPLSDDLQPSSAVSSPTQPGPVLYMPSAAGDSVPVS
Oligonucleotide	bound/input enrichment [ratio]
CGUGUAAGUCAGAUGCUGAUUUUGACUCCAUUUCAAGGUCAAGGCCAUGGUGCUCAACUUCUUGAAACAGUUCAUAGAUACUACACUGAAUUUCCUACAGUUCUUGAUAUUACAGCGGAA	0.395
UGUGCCCUGAUGGCAGCUGAAGUUUGAUUCAGAUGGGCACUUUUCUUCCCCUUCCCUGCCUAGUUUCCUUUUGUUCCUUGAGUCCACGCAGAAUUCCAUUCUCUGGUCAGCAGACAGGCU	1.11
GAGUCUGGGUUCAGGGAGCCCGUGCUGGAUGCCAAGUCGGAGGUCACGGGCCAGCUUAUAGAUUUUCAGUGGAAACUGGGCAUGGCUGUGAGCUCUGACAGCUGCAGAUCUCUCAAGUAU	0.115
AAGGAUAAUUUCCAGCAGACUCUUGUAAAUCGUGAUGGUGCCAAAAAAUUUCCCAAAUCAGUUAAAAAGGAAGAUCUUGAAAGUCAAAAUCAAAGGAAAUUUUGGAAAAAGAAGAUGGUU	0.261
AAAGAGCGCACACGUAGAGACCUUAUCCAGGAUCAAAAUAUGGAUGAAAAGGGAAAGCAAAGGAACCGGCGAAUAUUUGGCUUGUUGAUGGGUACCCUUCAAAAAUUUAAACAAGAAUCC	0.232
CCCCCUCCAGCAUUGCCACCUCUCCUACAAGCACGCAGGCACAUAAACGUAGGCUUUUGAUGCUCCUCUGCCUGUUGACCCCGCUAUUUUCAUGUUUCCAACAGGUUUUUCUUCCCCCAA	2.34
AAAACGUUGAUUGCCAAGGCCACAGCCAAAGAAGCAGGCUGUCGAUUUAUUAACCUUCAGCCUUCGACACUGACCGAUAAGUGGUAUGGAGAAUCUCAGAAAUUGGCUGCUGCUGUCUUC	0.104
AUGCUGAUCAAUGGCUAUGCGCUCAAUUGUGUGGUUGGAUCUCAGGGCAUGCCCAAGAGAAUAGUUAAUGCAAAAAUUGCUUGUCUUGACUUCAGCCUGCAGAAAACAAAAAUGAAGCUU	0.103
UCGGUUUUACACUCGGGAAGCAUUAACAGUGAGACACUAUUGUUUUUCUACUUGUGUGUGUAGUACAGGAAUUAUUCAGAUGCCACGUUUGAAUAAUUCAGAGUGAUGUUAUCUGUGAUA	0.149
GCCCGCCGUCCCGACCCCAGCCCCACCCAAGAUGUCAGAGGAUCUAGCAAAACAGUUGGCUAGCUACAAAGCUCAACUCCAGCAAGUAGAAGCUGCCCUUUCUGGAAAUGGAGAAAAUGA	0.981
AAACGUCGCUUCAGGAAAUUCCUAGUGUAUGUUGCCAACUUCGAUGAAAAAGAUCCAAGAACUUUUGAAGGCAUUGAUCCUAAGAAGACCACAAUGCGAGAUGUGUAUAAGAAAUUUGAU	0.0667

Series 3
Target: RNA binding protein fox-1 homolog 2, RRM domain, GST-SBP tag (RBFOX2, Homo sapiens, UniProt O43251-10, residues 100-194)
Technique: RNA Bind-n-Seq
Molecule type: RNA
Medium: in vitro
Tested at: 365 nM
Notes: natural RNA segment, single round, ends assumed
Baseline: no-protein control
Reading: higher = stronger binding
Shared flanks, not repeated: GGGAGUUCUACAGUCCGACGAUC … UGGAAUUCUCGGGUGCCAA
Target sequence (chain): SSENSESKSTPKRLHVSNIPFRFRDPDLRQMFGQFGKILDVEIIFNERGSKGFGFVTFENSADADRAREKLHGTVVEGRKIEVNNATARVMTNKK
Oligonucleotide	RBNS enrichment (R)
UGGACCACCCCUGGUGUGUAGCUAGUAAGAUUACCCUGAGCUGCAGCUGAGCCUGAGCCAAUGGGACAGUUACACUUGACAGACAAAGAUGGUGGAGAUUGGCAUGCCAU	1.38
UCUACAAUGCUCUUCAUGGUCUCAAUGUCUGUGCCAUAAGGGUAGAAAGCUAACAGUCAGUUUUUGCAACCUGUCUUCUGGAAGCAAAGUGAAAAGAAAUGACCAGGGCU	0.321
UAACUUGUGGCAAGAGGGAGGCAGAGAAUUGACUAGCUCUGACACCUAUUAAAGACAAAACUGGCUGCUUCUGAGCUCUUUCAGGCUGUACUUUGUGCUGUGCCAGUGGC	0.554
AUCCUUGGCCAUGCAGUUAGCACCUUCCUGUCAUGGGGAAGAUAUAGUGAAUUGCCCUGAGCUGCCUUCUUUUCUUUUUAAAAAUUUUUAAAUAAGGUUUUCUUUGUGGG	0.721
AGGAGCCAUAAGCUCUCCUUCAGACGGUGAGGCGGCUCCUGCCUCCUGCUACUGAAAUCUGCAGACAGCAGGGGCGGCUGCCUGGGGGGCUGGGCAGGCUGGGUGCCGGG	0.321
GUCUGACCUUCCCACUGAGAAACACAUGUUCAUUUAUGUGAUCAUGUAUAGAUUUCAGAAUAUAAGAUAUGACUGUACAUAAUUGUAAUAAAUACGAGUUGCCAUAUUUA	0.748
CACACGCCGAGACUCUGCCGUACCCCUCUGUGGUUCAUAUUACUACUUCUGUUCCAUGGUGUGCAGGUCUGCUUCUUAAUUCAGUGUUAUGAUAUCUUCCAGUUUUUGCU	0.742
GAUGGUGGGGCCAGUGGUUGUGUGAAAGCAGGAGGGGCAGCCCUCCUGGACAAGUGUGAUCCCCCUAUAAACGGCUCUCAGGAGGUUAGUGAGUAGGAGAUUCUGCCUUG	0.324
UUGUUUGUUUUGCCGCCCUGGACACAUGUUUGCCUCCUCCAAGAAUUUCUGCGGGGAUUUGUAUCCCAUGCCUUCGUCUUCUCCUCCCCGUCCAACUCCCUGGAGACCCU	4.39
UUGGGAAGAAAGGAAGAAAACAGGUCCCUCCAGGGGUGCUGCUGCCUAAGCCACCCACAUAAGUACGCUGGUGCCGUGUCACCCAUGUUGAGCCGCUCCUGAUGGCUGAC	0.3
AUAUGGCAAUUCAUAGUUGAGCUGUGUUGGCUUGAGGGAUGCUGCUGCUAAGUAGGGUGGACUGGGCAAAGCAAUGAACUUUCAGGCAUUCGAGCUACUUCAUCUGCAUA	0.469
UAUGCAAGAGUAUUGAUGUAUGUGCUGAAUCUUCACAGACUUGUCAAUACACAGGCAGUAUUCUAAAAUAGCACUGAACAGGGAGUCAGGAGACUAUUGUCUCCUAAACC	0.273

Series 4
Target: CCNB2, cyclin fold, Cln2 fusion (human)
Technique: yeast growth competition, sequencing
Medium: yeast
Notes: weak parent motif
Baseline: not given
Reading: higher = stronger binding
Starting sequence: DOT1L docking peptide (human); SEAKRRIVFTITT; partner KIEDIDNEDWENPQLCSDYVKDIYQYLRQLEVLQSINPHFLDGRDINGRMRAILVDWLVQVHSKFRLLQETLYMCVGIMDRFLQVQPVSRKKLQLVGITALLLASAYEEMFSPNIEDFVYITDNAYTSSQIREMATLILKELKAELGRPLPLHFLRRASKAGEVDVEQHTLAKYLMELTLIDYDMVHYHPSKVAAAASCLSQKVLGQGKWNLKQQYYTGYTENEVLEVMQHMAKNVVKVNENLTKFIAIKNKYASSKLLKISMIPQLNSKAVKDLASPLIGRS
Change	normalised enrichment score
K4A	0.131
R5A	-0.0478
T10A	0.181
T13A	0.174
I11A	-0.0884
F9A	0.479

Series 5
Target: Myc proto-oncogene protein, bHLH-zipper, MAX partner unstated (MYC, Homo sapiens, UniProt P01106, residues 368-449)
Sequence of UniProt P01106 (368-449, looked up): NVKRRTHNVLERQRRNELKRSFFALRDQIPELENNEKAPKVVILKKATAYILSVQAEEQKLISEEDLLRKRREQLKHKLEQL
Technique: protein-binding microarray
Molecule type: double-stranded DNA, one strand shown
Medium: in vitro
Tested at: not given
Notes: k-mer, scored over probes, only values ≥0.25
Reading: higher = stronger binding
Oligonucleotide	E-score
CGCCTGGC	0.254
ACGTGGTG	0.45
CTACATGC	0.283
CACGCATA	0.31
CATGCTCG	0.388
CGTGCATA	0.313
ACGCCGCA	0.316
CAATGTGG	0.355
CATGCCAG	0.335
CGCGGGTA	0.26
CATGCCGG	0.38
ACGCCTCC	0.264
ACGCATGC	0.455
CCATGCCA	0.356
AATGGCAT	0.269
CAGCGCGG	0.295
AAGTCACG	0.273
ATGTGCGG	0.369
ACGAGGTA	0.349
CATGTGGG	0.463
AGTCACGC	0.394
ACCCCTCC	0.306
ACACGATG	0.379
GCGTGTTA	0.414
CCGTGTCA	0.298

Series 6
Target: Histone acetyltransferase KAT6A, both winged helices, GST fusion (KAT6A, Homo sapiens, UniProt Q92794, residues 1-181)
Technique: protein binding microarray
Molecule type: double-stranded DNA, one strand shown
Medium: in vitro
Tested at: not given
Notes: 8-mer, flanks averaged, mean of 2 arrays, mostly near background
Baseline: not given
Reading: higher = stronger binding
Residues (chain): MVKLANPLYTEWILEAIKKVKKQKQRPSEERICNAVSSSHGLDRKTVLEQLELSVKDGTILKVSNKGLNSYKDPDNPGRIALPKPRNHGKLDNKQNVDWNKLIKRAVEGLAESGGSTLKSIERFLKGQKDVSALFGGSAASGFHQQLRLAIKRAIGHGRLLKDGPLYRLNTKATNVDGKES
Oligonucleotide	E-score
AACATCAC	-0.123
ATCGACTC	-0.172
CCTTCCTA	-0.187
TAGCTCGA	-0.0658
CGAGCCTA	-0.138
CATACCCA	-0.242
AAGATAGC	-0.00818
ATAGGGAT	-0.141
GGCGGTGA	0.18
GCCACGAA	-0.0686
GAGATACA	0.0442
CGCGTGAC	0.279
GAGTTAAC	-0.0208
AAGCGGCA	0.283
ACACTACA	-0.0804
CTATTTAC	-0.117
